Experimental data gathered from unrelated publications.
Each numbered part is a random draw from the data of one study; scales do not carry over between parts. Values joined by “and” are separate records of one study, mostly repeats; a detail may differ.
Sequence of UniProt P30872 (whole entry, looked up): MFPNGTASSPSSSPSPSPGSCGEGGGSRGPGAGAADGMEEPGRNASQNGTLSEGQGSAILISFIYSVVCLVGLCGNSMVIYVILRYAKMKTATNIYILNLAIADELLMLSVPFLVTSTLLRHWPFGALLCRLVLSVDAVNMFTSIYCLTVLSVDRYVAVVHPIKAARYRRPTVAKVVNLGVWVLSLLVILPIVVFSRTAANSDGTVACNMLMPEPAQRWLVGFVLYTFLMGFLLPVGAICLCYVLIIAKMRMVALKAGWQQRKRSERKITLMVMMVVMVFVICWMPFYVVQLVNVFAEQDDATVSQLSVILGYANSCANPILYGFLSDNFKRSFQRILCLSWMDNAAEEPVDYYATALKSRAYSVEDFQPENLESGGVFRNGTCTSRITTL
Sequence of UniProt P41145 (whole entry, looked up): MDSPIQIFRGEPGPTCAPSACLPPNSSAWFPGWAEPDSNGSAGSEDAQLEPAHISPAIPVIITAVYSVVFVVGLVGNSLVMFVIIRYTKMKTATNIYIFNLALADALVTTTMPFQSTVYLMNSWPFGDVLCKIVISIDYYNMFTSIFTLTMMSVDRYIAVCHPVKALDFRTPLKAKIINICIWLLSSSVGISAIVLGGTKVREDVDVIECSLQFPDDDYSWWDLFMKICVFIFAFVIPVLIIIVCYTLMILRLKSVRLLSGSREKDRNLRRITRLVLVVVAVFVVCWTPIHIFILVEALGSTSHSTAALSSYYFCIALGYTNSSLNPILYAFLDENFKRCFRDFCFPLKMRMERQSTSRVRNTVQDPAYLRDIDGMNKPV
Sequence of UniProt P11362 (whole entry, looked up): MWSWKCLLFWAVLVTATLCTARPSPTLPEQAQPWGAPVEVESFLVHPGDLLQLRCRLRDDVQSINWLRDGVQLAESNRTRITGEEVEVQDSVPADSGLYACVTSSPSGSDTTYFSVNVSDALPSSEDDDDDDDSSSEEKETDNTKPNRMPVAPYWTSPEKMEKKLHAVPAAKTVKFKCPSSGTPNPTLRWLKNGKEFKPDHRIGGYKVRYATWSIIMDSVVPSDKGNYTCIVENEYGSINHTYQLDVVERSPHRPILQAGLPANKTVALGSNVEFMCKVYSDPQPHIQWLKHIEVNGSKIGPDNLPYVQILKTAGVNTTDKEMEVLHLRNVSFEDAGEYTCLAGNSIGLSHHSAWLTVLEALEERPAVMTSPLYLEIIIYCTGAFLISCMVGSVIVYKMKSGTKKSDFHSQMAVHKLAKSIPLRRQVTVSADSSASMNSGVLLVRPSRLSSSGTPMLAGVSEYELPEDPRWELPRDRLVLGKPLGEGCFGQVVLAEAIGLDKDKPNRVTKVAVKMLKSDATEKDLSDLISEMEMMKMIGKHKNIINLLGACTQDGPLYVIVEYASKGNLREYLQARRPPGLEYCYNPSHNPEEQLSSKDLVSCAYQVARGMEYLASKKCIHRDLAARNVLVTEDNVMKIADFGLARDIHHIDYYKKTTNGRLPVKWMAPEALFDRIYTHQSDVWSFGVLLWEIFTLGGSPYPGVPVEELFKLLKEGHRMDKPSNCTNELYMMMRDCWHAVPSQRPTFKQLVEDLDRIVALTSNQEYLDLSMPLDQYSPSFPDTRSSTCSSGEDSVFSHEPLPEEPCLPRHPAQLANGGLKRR
Sequence of UniProt P22607 (whole entry, looked up): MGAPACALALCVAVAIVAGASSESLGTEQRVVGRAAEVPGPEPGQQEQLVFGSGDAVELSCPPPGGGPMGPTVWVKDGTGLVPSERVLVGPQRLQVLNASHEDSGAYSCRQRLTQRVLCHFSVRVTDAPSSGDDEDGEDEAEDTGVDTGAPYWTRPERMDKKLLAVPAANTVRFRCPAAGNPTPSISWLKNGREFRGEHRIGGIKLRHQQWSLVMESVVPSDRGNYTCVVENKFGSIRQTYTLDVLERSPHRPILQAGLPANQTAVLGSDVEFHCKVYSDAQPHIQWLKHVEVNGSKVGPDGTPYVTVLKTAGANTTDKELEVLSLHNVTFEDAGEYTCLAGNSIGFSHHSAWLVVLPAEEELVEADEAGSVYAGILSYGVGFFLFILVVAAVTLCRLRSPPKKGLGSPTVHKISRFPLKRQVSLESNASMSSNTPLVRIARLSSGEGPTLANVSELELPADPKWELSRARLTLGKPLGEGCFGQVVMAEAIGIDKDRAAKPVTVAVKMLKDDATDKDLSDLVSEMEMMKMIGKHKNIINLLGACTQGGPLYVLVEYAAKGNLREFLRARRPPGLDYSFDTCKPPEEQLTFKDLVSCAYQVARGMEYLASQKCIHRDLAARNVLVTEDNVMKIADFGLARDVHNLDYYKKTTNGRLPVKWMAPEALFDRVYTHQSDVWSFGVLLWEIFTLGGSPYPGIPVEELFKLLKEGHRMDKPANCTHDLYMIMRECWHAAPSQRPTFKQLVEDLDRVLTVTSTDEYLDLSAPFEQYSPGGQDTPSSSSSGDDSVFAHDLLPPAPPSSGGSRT
Sequence of UniProt Q9P286 (whole entry, looked up): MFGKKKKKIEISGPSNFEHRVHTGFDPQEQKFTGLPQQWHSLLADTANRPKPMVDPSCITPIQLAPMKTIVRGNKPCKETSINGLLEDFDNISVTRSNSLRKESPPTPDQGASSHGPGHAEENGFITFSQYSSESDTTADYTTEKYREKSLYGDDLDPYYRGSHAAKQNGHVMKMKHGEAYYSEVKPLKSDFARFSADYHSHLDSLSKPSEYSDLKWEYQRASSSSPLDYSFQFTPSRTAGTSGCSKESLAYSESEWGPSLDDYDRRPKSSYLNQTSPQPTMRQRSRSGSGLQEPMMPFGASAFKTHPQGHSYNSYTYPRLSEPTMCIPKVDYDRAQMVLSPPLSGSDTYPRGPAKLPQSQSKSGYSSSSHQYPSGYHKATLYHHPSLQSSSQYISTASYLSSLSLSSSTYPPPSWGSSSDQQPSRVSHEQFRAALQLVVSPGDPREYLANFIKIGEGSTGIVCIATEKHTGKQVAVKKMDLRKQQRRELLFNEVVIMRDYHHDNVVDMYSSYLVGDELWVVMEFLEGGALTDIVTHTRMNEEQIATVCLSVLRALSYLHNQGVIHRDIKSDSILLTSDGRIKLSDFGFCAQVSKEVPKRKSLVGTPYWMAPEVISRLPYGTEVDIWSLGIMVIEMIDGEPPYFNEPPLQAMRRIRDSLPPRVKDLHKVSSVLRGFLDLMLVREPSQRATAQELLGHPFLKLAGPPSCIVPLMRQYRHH
Sequence of UniProt P28566 (whole entry, looked up): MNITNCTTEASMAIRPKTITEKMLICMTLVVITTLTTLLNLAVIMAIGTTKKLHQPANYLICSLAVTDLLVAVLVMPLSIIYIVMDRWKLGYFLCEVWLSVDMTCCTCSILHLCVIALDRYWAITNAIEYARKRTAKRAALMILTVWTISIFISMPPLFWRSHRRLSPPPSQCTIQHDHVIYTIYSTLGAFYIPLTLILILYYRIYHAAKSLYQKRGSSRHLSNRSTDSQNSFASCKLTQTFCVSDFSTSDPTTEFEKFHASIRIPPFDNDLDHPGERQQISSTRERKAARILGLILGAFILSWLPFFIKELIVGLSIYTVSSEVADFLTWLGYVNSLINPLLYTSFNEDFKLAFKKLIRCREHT
Sequence of UniProt P07948 (whole entry, looked up): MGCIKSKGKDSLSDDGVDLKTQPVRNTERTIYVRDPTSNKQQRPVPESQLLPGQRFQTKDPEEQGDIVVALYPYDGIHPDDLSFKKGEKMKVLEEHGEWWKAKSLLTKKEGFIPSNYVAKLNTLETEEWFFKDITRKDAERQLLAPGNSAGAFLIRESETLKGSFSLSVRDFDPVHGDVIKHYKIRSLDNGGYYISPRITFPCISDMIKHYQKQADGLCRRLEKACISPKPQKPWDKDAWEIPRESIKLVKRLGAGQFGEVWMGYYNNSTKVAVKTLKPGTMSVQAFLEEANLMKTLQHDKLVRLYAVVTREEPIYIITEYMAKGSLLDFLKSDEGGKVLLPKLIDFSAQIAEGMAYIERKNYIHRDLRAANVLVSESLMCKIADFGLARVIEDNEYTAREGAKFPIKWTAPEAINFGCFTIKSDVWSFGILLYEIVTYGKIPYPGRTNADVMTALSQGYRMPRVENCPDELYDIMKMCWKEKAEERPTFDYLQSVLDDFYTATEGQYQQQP
Sequence of UniProt Q9BWU1 (whole entry, looked up): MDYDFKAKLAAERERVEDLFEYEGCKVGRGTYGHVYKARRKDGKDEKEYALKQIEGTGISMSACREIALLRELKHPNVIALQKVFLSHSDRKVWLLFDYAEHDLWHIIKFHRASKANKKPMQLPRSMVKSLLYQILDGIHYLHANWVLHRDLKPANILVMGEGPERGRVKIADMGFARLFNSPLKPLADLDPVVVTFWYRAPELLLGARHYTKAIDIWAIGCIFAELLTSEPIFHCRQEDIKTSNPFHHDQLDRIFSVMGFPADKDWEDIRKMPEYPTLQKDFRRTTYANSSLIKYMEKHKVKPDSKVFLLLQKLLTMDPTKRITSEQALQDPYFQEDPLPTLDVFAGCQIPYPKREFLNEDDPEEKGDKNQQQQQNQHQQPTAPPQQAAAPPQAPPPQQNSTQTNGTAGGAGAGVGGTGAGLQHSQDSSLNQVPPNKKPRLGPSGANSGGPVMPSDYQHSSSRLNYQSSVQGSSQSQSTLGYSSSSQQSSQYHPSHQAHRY
Sequence of UniProt P27361 (whole entry, looked up): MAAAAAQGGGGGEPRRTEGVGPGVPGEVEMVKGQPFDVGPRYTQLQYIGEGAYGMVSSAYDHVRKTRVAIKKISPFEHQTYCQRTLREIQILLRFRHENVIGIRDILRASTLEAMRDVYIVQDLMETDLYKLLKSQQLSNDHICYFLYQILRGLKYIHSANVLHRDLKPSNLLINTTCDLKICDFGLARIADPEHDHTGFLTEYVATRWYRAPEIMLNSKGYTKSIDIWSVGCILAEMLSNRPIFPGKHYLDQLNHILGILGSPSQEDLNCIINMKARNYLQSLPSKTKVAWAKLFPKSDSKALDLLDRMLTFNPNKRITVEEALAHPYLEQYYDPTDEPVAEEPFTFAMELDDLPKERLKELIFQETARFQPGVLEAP

Block 1 — effect on: β-arrestin recruitment; action: agonist; method: PRESTO-Tango; concentration: 10 µM; reference: untreated; endpoint: fold over basal
Structure (SMILES): N=C(N)NC(=O)c1cnn(-c2cccc3ncccc23)c1C1CC1
target = CHRM3 (Homo sapiens, UniProt P20309); result = 0.75
target = SSTR1 (Homo sapiens, UniProt P30872); result = 1.01
target = HTR1E (Homo sapiens, UniProt P28566); result = 1.14
target = Trace amine-associated receptor 6 (TAAR6, Homo sapiens, UniProt Q96RI8); result = 1.34 fold
target = Probable G-protein coupled receptor 152 (GPR152, Homo sapiens, UniProt Q8TDT2); result = 1.07
target = F2RL1 (Homo sapiens, UniProt P55085); result = 1
target = OPRK1 (Homo sapiens, UniProt P41145); result = 1.72 fold
target = UTS2R (Homo sapiens, UniProt Q9UKP6); result = 0.74 fold

Block 2 — Compound: Cc1nc2cc3nc(-c4cccs4)cnc3cc2n1C; effect on: enzyme activity; action: inhibitor; concentration: 0.5 µM; reference: control; endpoint: remaining activity
target = FGFR3 (Homo sapiens, UniProt P22607); result = 67.1%
target = ACVR1B (Homo sapiens, UniProt P36896); result = 104%
target = MERTK (Homo sapiens, UniProt Q12866); result = 90.4%
target = TEK (Homo sapiens, UniProt Q02763); result = 96.6%
target = GSK3B (Homo sapiens, UniProt P49841); result = 109%
target = FGFR1 (Homo sapiens, UniProt P11362); result = 88.8%
target = ULK2 (Homo sapiens, UniProt Q8IYT8); result = 105%
target = MAP2K2 (Homo sapiens, UniProt P36507); result = 77.5%
target = LCK (Homo sapiens, UniProt P06239); result = 86.3%
target = TBK1 (Homo sapiens, UniProt Q9UHD2); result = 93%
target = ABL2 (Homo sapiens, UniProt P42684); result = 100%
target = JAK3 (Homo sapiens, UniProt P52333); result = 107%
target = GRK7 (Homo sapiens, UniProt Q8WTQ7); result = 96.6%
target = MAPK3 (Homo sapiens, UniProt P27361); result = 117%

Block 3 — cell line: human CD34+ HSPC; method: EdU flow cytometry; time: 24 h; endpoint: S-phase cells
SMILES: CC(C)C[C@@H]1NC(=O)[C@@H](N(C)C(=O)[C@H](CC2CCC2)NC(=O)[C@@H]2C[C@@H](F)CN2C(=O)C2(C(F)(F)F)CC(F)(F)C2)CCCCNC(=O)C2(CC2)NC(=O)[C@H](Cc2cc(Cl)ccc2Cl)N(C)C1=O
concentration = 10 nM; result = 43.9% and 46.4%
concentration = 10000 nM; result = 48.1% and 45%
concentration = 300 nM; result = 43.8% and 45.1%

Block 4 — concentration: 0.1 µM; endpoint: remaining binding
Compound: C[C@H](c1ccnc(Nc2nc3ccc(-c4cc(N(C)C)ncn4)cc3[nH]2)c1)N1CCN(C(=O)CC(F)(F)F)CC1
target = PAK5 (Homo sapiens, UniProt Q9P286); effect on = cell-free assay; method = competition with immobilised ligand; result = 100%
target = MAP3K13 (Homo sapiens, UniProt O43283); effect on = cell-free assay; method = competition with immobilised ligand; result = 100%
target = LYN (Homo sapiens, UniProt P07948); effect on = cell-free assay; method = competition with immobilised ligand; result = 97%
target = COQ8B (Homo sapiens, UniProt Q96D53); effect on = cell-free assay; method = competition with immobilised ligand; result = 79%
target = LTK (Homo sapiens, UniProt P29376); effect on = cell-free assay; method = competition with immobilised ligand; result = 100%
target = CDK19 (Homo sapiens, UniProt Q9BWU1); method = competition binding; result = 93%
